# Measured values pooled from the literature.
# Each line is one published result; not all experiments were run side by side. ± marks the error that the study gave.
SMILES,assay,system,setting,solubility
c1cncc(-c2cccc(Nc3cc(NC4CCCCC4)ccn3)c2)c1,,citrate phosphate-buffered saline,"18 h, pH 7.4, 1% DMSO",58.9 ± 0.5 µM
Cc1cc(/C=C/C#N)cc(C)c1Nc1ccnc(Nc2ccc(C#N)cc2)n1,,Capryol 90,"24 h, 37 °C",2840 ± 150 µg/mL
O=S(=O)(c1ccc(-c2ccc3nccc(Nc4cccnc4)c3c2)cc1)N1CCOCC1,thermodynamic,aqueous medium,,9 µM
COc1ccc(-n2nc(C(=O)NC(=O)OCc3cc(C(=O)O)ccc3OP(=O)(O)O)c3c2C(=O)N(c2ccc(N4CCCCC4=O)cc2)CC3)cc1,"HPLC, saturated solution",HBSS,"30 s, pH 6.5",43000 µg/mL
c1cncc(-c2cccc(Nc3nccc(NC4CCOCC4)n3)c2)c1,,citrate phosphate-buffered saline,"18 h, pH 7.4, 1% DMSO",64.1 ± 3.1 µM
CCOc1ccc(C(C)=O)cc1Cc1c(O)nc(N)nc1O,,aqueous buffer,pH 7.4,8.56 µg/mL
Cc1c(-c2cccc(C(F)(F)F)c2)sc2[nH]c(=O)n([C@H](C)c3cccc4ccccc34)c(=O)c12,shake-flask,PBS,"36 h, pH 7.4, room temperature",37 ± 3.6 µM
Clc1nc(SCc2ccccc2)c2[nH]cnc2n1,UV absorbance,culture medium,stock diluted to 0.067 mM,16.5 µM
CC(C)Nc1ccnc(Nc2cccc(-c3nccs3)c2)n1,,citrate phosphate-buffered saline,"18 h, pH 7.4, 1% DMSO",29.6 ± 5.1 µM
COC1=CC(c2ccc[nH]2)=N/C1=C\c1[nH]c(-c2ccc(OC)cc2)cc1-c1ccc(OC)cc1,,potassium phosphate buffer,"1.5 h, pH 7.4, room temperature",8.95 µM
CCCSc1ccc2nc(NC(=O)OC)[nH]c2c1,LC-MS,DPBS,18 h,1.9 µM
CN(Cc1ccc(C(C)(C)C)cc1)Cc1cccc2ccccc12,,PBS,"pH 7.4, 25 °C, 2% DMSO",10 µM
CC(C)(C)c1ccc([C@H]2COC[C@H](C3CCCCC3)N2)cc1,"shake-flask, LC-HRMS",aqueous buffer,"16 h, pH 6.8",< 4 µM
Nc1nc2c(ncn2COCCO)c(=O)[nH]1,,methanol + water,"24 h, 298.2 K, methanol mass fraction 0.7",1770 µg/mL
CC(=O)Nc1cccc(-c2nnc(SCC(=O)Nc3ccc(C(C)=O)cc3)n2C)c1,,aqueous buffer,pH 7.4,2.97 µg/mL
CCOC(=O)N1C[C@@H]([C@H]2CCOC2)N[C@@H](C2CC2)C1,"shake-flask, LC-HRMS",aqueous buffer,"16 h, pH 6.8",> 750 µM
COC(=O)c1ccccc1Oc1nc(NC(C)C)nc(NC(C)C)n1,,aqueous buffer,pH 7.4,< 1.48 µg/mL
O=C(Nc1ccc(OC(F)(F)F)cc1)N[C@H]1CC[C@H](Oc2ccc(C(=O)O)cc2)CC1,,deionised water,"60 min, pH 6.6, 37 °C, non-sink dissolution",0.169 µg/mL
NC[C@H](NC(=O)[C@@H](CCCCNC(=O)CN1CCN(CC(=O)O)CCN(CC(=O)O)CCN(CC(=O)O)CC1)NC(=O)[C@@H](Cc1c[nH]c2ccccc12)NC(=O)OCC1c2ccccc2-c2ccccc21)C(N)=O,,water,,≥ 5000 µM
CSc1ccc(S(=O)(=O)NCc2ccccn2)cc1,,aqueous buffer,pH 7.4,60.9 µg/mL
CCOC(=O)N1C[C@@H](c2ccccc2O)N[C@@H](c2ccc(C(C)(C)C)cc2)C1,"shake-flask, LC-HRMS",aqueous buffer,"16 h, pH 6.8",< 4 µM
CCn1c(C(=O)N(C2CC2)C2CC2)cc2c3c(ncn3C)c(Nc3cc(C)n(C)n3)nc21,,,pH 2.13,398 µg/mL
Cn1cncc1[C@@](N)(c1ccc(Cl)cc1)c1ccc2c(c1)c(-c1cccc(Cl)c1)cc(=O)n2C,,USP phosphate buffer,"pH 7.5, 25 °C, final pH 7.49",0.14 µg/mL
c1cncc(-c2cccc(Nc3nccc(NC4CC4)n3)c2)c1,,citrate phosphate-buffered saline,"18 h, pH 7.4, 1% DMSO",39.8 ± 3.5 µM
COc1cc(OC)c2c(=O)c(OC)c(-c3ccc(OC)c(OC)c3)oc2c1,HPLC,ethanol:butylene glycol 25:75,,12850 ± 20 ppm
Cc1cnnc(Nc2ccnc3ccc(-c4ccc(S(=O)(=O)N5CCOCC5)cc4)cc23)c1,thermodynamic,aqueous medium,,1 µM
COc1ccc(-c2cc(=O)c3c(OC)cc(OC)cc3o2)cc1,HPLC,ethanol:butylene glycol 0:100,,11710 ± 74 ppm
CCOC1=CC(c2ccc[nH]2)=N/C1=C\c1cc(Cc2ccc(OC(F)(F)F)cc2)c(C)[nH]1.Cl,,potassium phosphate buffer,"1.5 h, pH 7.4, room temperature",13.7 µM
O=c1c2ccccc2oc2ccccc12,,tricaprin-tricaprylin mixture,"30 °C, tricaprin fraction 0.77",0.0387 mole fraction
c1ccc(CSc2ncnc3nc[nH]c23)cc1,UV absorbance,culture medium,stock diluted to 0.10 mM,88 µM
C[C@@H](O)[C@H](NC(=O)c1ccc(-c2ccccc2)cc1)C(=O)NCC1(C)NC(=O)NC1=O (stereo partly drawn),,aqueous buffer,pH 7.4,1370 µg/mL
NC(=O)c1cccc2c1O/C(=C\c1ccc(C(=O)O)s1)C2=O,saturation solubility,aqueous buffer,"24 h, pH 7.2, 25 °C",30 µg/mL
Cc1nccn1CC1CCc2c(c3ccccc3n2C)C1=O (stereo not drawn),kinetic solubility,PBS with 2% DMSO,"2 h, pH 7.4, 25 °C, mean of incubations",103 µM
c1ccc(-c2ccc([C@H]3COC[C@@H](c4ccc(-n5cncn5)cc4)N3)cc2)cc1,"shake-flask, LC-HRMS",aqueous buffer,"16 h, pH 6.8",< 4 µM
COc1cc(OC)c(NC(=O)CSc2nnc(-c3ccncc3)n2C)cc1Cl,,aqueous buffer,pH 7.4,< 2.25 µg/mL
CC(C)Nc1ccnc(Nc2cccc(-c3ncco3)c2)n1,,citrate phosphate-buffered saline,"18 h, pH 7.4, 1% DMSO",53.8 ± 3.2 µM
COc1cc(OC)c2c(=O)cc(-c3ccccc3)oc2c1,HPLC,ethanol:butylene glycol 75:25,,13530 ± 74 ppm
N=C(N)NC(=O)c1nc(Cl)c(NCc2cc(Cl)cc(Cl)c2)nc1N,,aqueous buffer,pH 7.4,< 1.01 µg/mL
O=S(=O)(c1ccc(-c2ccc3nccc(Nc4ccc5[nH]nnc5c4)c3c2)cc1)N1CCOCC1,thermodynamic,aqueous medium,,5 µM
CC1(CNC(=O)c2ccc(-c3ccccc3)cc2)NC(=O)NC1=O (stereo not drawn),,aqueous buffer,pH 7.4,13 µg/mL
O=C(NC1(C(F)(F)F)CC1)c1ccccc1,,PBS,"2 h, pH 7.4, 25 °C",395 µM
CC#Cc1cncc(-c2ccc3c(c2)[C@@]2(N=C(C)C(N)=N2)[C@]2(CC[C@H](OC)CC2)C3)c1,dried-DMSO method,,,35.3 µM
CC(=O)Nc1ccc(Nc2ncnc(N[C@@H](CC(C)C)C(=O)O)n2)cc1,,,3 (unit not given),> 200 µM
CCOC(=O)N1C[C@@H](c2cc(F)c(O)c(F)c2)N[C@@H](c2ccc(F)c3ccccc23)C1,"shake-flask, LC-HRMS",aqueous buffer,"16 h, pH 6.8",< 4 µM
CCCCCCCCCCCCCCCC(=O)NCCO,,hydrochloride buffer,"12 h, pH 1.2, 37 °C",< 16 µg/mL
Clc1ccc([C@@H]2COC[C@H](c3ccc(-c4ccccn4)cc3)N2)cc1,"shake-flask, LC-HRMS",aqueous buffer,"16 h, pH 6.8",< 4 µM
COc1cc(Br)cc2c1OCC(C(=O)Nc1ccc3c(c1)CN(C1CCC(=O)NC1=O)C3=O)=C2 (stereo not drawn),,DMSO,,≤ 25000 µM
CCOC(=O)N1C[C@@H](C2CCOCC2)N[C@@H](C(CC)CC)C1,"shake-flask, LC-HRMS",aqueous buffer,"16 h, pH 6.8",> 750 µM
O=C(Nc1cc(F)c(F)c(F)c1)c1ccc(F)c(S(=O)(=O)N2CCC(O)CC2)c1,,phosphate buffer,pH 2.0,61.5 µg/mL
CC1(C)OC[C@H](C2CCC2)N[C@@H]1c1ccc(Cl)c(Cl)c1,"shake-flask, LC-HRMS",aqueous buffer,"16 h, pH 6.8",< 4 µM
CC(C)(C)c1ccc(CN2CCN(C(c3ccccc3)c3ccc(Cl)cc3)CC2)cc1 (stereo not drawn),,PBS,"2 h, pH 7.4, 25 °C, 2% DMSO",2 µM

# For quick reference, copied from above:
SMILES,assay,system,setting,solubility
CC(=O)Nc1cccc(-c2nnc(SCC(=O)Nc3ccc(C(C)=O)cc3)n2C)c1,,aqueous buffer,pH 7.4,2.97 µg/mL
CCOC(=O)N1C[C@@H]([C@H]2CCOC2)N[C@@H](C2CC2)C1,"shake-flask, LC-HRMS",aqueous buffer,"16 h, pH 6.8",> 750 µM
COC(=O)c1ccccc1Oc1nc(NC(C)C)nc(NC(C)C)n1,,aqueous buffer,pH 7.4,< 1.48 µg/mL
